Published values of several laboratories.
Parts stem from different laboratories: compare values within a part only.

Set 1 — technique: RNA Bind-n-Seq; form: RNA; medium: in vitro; tested at: 200 nM; notes: whole 134-nt RNA, ends assumed; added: 150 mM KCl; baseline: input library; reading: higher = stronger binding
Target: Fragile X messenger ribonucleoprotein 1, C-terminal low-complexity region (Fmr1, Mus musculus, UniProt P35922)
With `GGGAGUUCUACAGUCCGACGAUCAGUCCUGUGCUACACAUCGUAUGUACCGAAUCGGGCCCCGGCCCCGGGGCCCCGGGGAAAGUAUUAUGUUACGCCGUUCGGAUCUGCACUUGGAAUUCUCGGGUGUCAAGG` the log2 enrichment was -1.34.
The log2 enrichment of `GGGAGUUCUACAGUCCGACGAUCUGAUCAGCAAAGCCAAGAUGAGCCUUUGAGAAGCAGAAAAGUGUUUGUGGGGCGCUGUACAGAGGACAUGACUGAGGAUGAGCUGCGGGAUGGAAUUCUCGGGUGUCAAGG` is reported as -0.337.
`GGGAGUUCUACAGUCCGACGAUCGCUGUUCUUGCCUUAGCUGCAUCUUGGACCUCAAGACAAGUAGGAGAACGGACGUUGACCGGUACGGUAAUAGACAGUGGAGAUGGUGUCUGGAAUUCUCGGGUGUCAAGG` gave a log2 enrichment of -0.894.
`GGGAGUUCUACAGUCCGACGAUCACCAUGCAGGUGGGCAUCUUUGGGAAGUGGGGCAAGGGGGGGAUAGGGAGGGGGGUAACACUUUGGGAACAGGUGGGCCCAGGUCGUUUCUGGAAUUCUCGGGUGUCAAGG` has a log2 enrichment of 0.664.
`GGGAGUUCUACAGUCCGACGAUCUCAAGUCCUGUGCUACACAUCGUAUGUACCGAAUCGGCCCGGCCCGGGCCCGGGGAAAGUAUUAUGUUACGCCGUUCGGAUCUGCACUUCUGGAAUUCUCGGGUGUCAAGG` has a log2 enrichment of -0.62.
`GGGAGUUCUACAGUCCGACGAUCCAAGUCCUGUGCUACACAUCGUAUGUACCGAAUCGGUUUUGGGGUUUUGGUUUUGGAAAGUAUUAUGUUACGCCGUUCGGAUCUGCACUUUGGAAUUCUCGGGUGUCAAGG` gave a log2 enrichment of -0.521.
`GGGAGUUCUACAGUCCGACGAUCCCUCAAGUCCUGUGCUACACAUCGUAUGUACCGAAUCGGUGGGUGGGGUGGGAAAGUAUUAUGUUACGCCGUUCGGAUCUGCACUUCCAGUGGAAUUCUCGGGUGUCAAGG` gave a log2 enrichment of 1.04.
`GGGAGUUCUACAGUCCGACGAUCCCUCAAGUCCUGUGCUACACAUCGUAUGUACCGAAUCGGAGGUGGAAAAAGGAAAGUAUUAUGUUACGCCGUUCGGAUCUGCACUUCCAGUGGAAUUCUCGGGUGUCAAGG` gave a log2 enrichment of 0.0919.
`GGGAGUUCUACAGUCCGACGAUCGUCCUGUGCUACACAUCGUAUGUACCGAAUCGGGGUUUUUUUGGGGUGGGGAAAGGGGAAAGUAUUAUGUUACGCCGUUCGGAUCUGCACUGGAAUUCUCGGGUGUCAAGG` has a log2 enrichment of 0.586.

Set 2 — read-out: peptide binding; form: peptide; medium: yeast competitive growth; added: B1-Cln2 chimera; reading: direction not given
`AEHPKPSACRNLFGPV` gave an enrichment score of -0.726.
`HPESPPRKRLKSKGSD` gave an enrichment score of 4.44.
`VLPGGVPSPGASLTSM` gave an enrichment score of 0.483.
The enrichment score of `EHCRVLFLDHVMYTIH` is reported as -1.01.
With `KRCATPVIIDEILPSK` the enrichment score was 0.371.
`PHKTFRKLRLFDTPHT` has an enrichment score of -0.888.
`ASVLSKPIFCFVKD` has an enrichment score of 0.216.
For `RQVRRDLFAF`, the enrichment score was -1.63.
With `VKRLNFRSEEME` the enrichment score was 0.167.
The enrichment score of `GPVKLEFDVSDGAT` is reported as -0.0659.
With `DKYDEGLYRFNSLNDL` the enrichment score was 0.922.
`DVSERGYVILPNDYFE` has an enrichment score of 0.844.
`NESHLDKEHDAVEVAD` gave an enrichment score of 0.743.
`EPRNLLSLFEDTLDPT` has an enrichment score of 0.615.

Set 3 — technique: competition protein-binding microarray; form: double-stranded DNA, one strand shown; medium: in vitro; tested at: 2 µM; added: Cbf1 competitor, 0.05 µM; reading: higher = stronger binding
Target: Phosphate system positive regulatory protein PHO4, full length, GST-tagged (PHO4, Saccharomyces cerevisiae, UniProt P07270, residues 1-312)
Notes: whole 60-bp probe, lowest competitor level
Construct (chain): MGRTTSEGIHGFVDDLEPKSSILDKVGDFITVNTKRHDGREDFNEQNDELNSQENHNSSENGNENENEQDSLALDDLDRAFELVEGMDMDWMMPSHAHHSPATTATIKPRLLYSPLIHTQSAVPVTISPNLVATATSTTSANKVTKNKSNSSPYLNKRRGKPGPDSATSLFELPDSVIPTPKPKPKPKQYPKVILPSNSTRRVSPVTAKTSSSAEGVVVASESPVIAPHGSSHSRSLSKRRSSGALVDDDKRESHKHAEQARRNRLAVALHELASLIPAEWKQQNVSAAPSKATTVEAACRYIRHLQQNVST
With `GAAGAGGACGAAGACGACGTGGTGAAAGAAGACGAAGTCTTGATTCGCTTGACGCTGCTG` the fluorescence intensity was 4940 a.u.
The fluorescence intensity of `AAAGCGGTAATTTGCAGAGTGGGTGCAGATATCTATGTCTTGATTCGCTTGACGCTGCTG` is reported as 4260 a.u.
`ACCTTGCGGCGATATCACAATTTTCCTTGTACACTCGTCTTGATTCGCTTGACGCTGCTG` has a fluorescence intensity of 3370 a.u.
For `AATTCACTTGATTCTCATGTGAGTACATCAGAAAAAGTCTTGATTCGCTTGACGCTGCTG`, the fluorescence intensity was 3900 a.u.
With `GGTTCTTCGTCTTTGCACGTGGTCGAAGAGGAACCTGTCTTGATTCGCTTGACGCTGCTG` the fluorescence intensity was 17800 a.u.
`AAAGCGGTAATTTGATCAGTGGGTGCAGATATCTATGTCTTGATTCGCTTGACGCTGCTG` gave a fluorescence intensity of 4200 a.u.
`AATTATCAGGGACCGGTCGTGCCGATAATGTCCTGCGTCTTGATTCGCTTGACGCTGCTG` has a fluorescence intensity of 6760 a.u.
With `TGCGCAACAACTTGTGTGGTGGGTGTATGTCTAGAAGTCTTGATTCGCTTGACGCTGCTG` the fluorescence intensity was 5040 a.u.
With `CACCCGGAGTACCAAAACGTGACAAAGCAGTTTCCTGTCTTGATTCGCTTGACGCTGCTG` the fluorescence intensity was 12600 a.u.
With `CTGGGAAAACATCACCACGTCTCAAAGAACCTGCAAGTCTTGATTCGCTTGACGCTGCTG` the fluorescence intensity was 5730 a.u.
With `TTTTCAAGGTCTAGAAGCGTGCCGATATCATTCTGAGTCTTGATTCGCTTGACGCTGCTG` the fluorescence intensity was 7550 a.u.
For `CGTCGGCCCAACTTGATCATGCAATTAGCAAGCAACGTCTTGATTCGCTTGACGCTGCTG`, the fluorescence intensity was 4250 a.u.
`CTAACGAAGGTTTGGATGGTGGGTGACAAGCCAAGTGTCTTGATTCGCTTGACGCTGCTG` has a fluorescence intensity of 4140 a.u.
`ATACGAACCATCCATCACGTGCAAAGACAAACCCTAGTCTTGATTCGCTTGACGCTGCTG` gave a fluorescence intensity of 14400 a.u.
`TTTTCCGCGCGAAAGCACGTTACCCGGACCCCGTCTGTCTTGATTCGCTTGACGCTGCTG` gave a fluorescence intensity of 8420 a.u.
For `ACCCCCGCCCTCAAAGCCGTGACTCGATAACGACTTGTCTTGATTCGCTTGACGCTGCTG`, the fluorescence intensity was 3850 a.u.
`AAAGCGGTAATTTTTCACGTGCTCTCACATATCTATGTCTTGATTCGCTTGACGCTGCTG` has a fluorescence intensity of 14900 a.u.
For `TACGACATTGGCAATCACGTGTTGGGCTGCTCCTCCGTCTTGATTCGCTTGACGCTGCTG`, the fluorescence intensity was 13700 a.u.
The fluorescence intensity of `AGTAGTTTAAAATTTCACGTGTACTTTCCCTGTTTTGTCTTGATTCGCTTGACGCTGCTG` is reported as 12400 a.u.

Set 4 — technique: protein binding microarray; form: double-stranded DNA, one strand shown; medium: in vitro; tested at: not given; baseline: not given; reading: higher = stronger binding
Target: Histone acetyltransferase KAT6A, winged helix 2, GST fusion (KAT6A, Homo sapiens, UniProt Q92794, residues 85-181)
Notes: 8-mer, flanks averaged, mean of 2 arrays, mostly near background
Target sequence (chain): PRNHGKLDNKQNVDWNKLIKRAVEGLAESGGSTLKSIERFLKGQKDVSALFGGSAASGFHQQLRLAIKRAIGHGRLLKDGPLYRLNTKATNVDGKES
For `ATGCAGCA`, the E-score was 0.073.
The E-score of `AACCATTG` is reported as -0.0056.
With `CAGTATCG` the E-score was -0.0885.
`AGTCGGGC` has an E-score of 0.144.
For `AGTATGGC`, the E-score was -0.0258.
The E-score of `ATAGTTGC` is reported as -0.0259.
For `AAATGGCC`, the E-score was -0.0636.
For `CAGCGACA`, the E-score was 0.00477.
The E-score of `CGCCAGTA` is reported as -0.0165.
`ACAAAGAA` has an E-score of 0.125.
`AGCCTGAG` gave an E-score of 0.024.
For `AGTAAGGG`, the E-score was 0.0253.
The E-score of `AAGACGTC` is reported as -0.17.
The E-score of `AAAACCAG` is reported as 0.108.
`ACGTACTC` gave an E-score of -0.293.
For `GTGCGCGA`, the E-score was 0.0158.
`TTAGGCAA` gave an E-score of 0.026.

Repeated from above (set 3):
`AAAGCGGTAATTTGATCAGTGGGTGCAGATATCTATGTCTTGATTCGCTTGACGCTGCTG` gave a fluorescence intensity of 4200 a.u.
`AATTATCAGGGACCGGTCGTGCCGATAATGTCCTGCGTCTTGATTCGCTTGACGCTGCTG` has a fluorescence intensity of 6760 a.u.
With `TGCGCAACAACTTGTGTGGTGGGTGTATGTCTAGAAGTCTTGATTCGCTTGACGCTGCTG` the fluorescence intensity was 5040 a.u.
With `CACCCGGAGTACCAAAACGTGACAAAGCAGTTTCCTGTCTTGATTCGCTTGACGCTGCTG` the fluorescence intensity was 12600 a.u.
With `CTGGGAAAACATCACCACGTCTCAAAGAACCTGCAAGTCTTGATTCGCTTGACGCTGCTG` the fluorescence intensity was 5730 a.u.
With `TTTTCAAGGTCTAGAAGCGTGCCGATATCATTCTGAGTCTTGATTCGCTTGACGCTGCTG` the fluorescence intensity was 7550 a.u.
For `CGTCGGCCCAACTTGATCATGCAATTAGCAAGCAACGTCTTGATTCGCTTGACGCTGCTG`, the fluorescence intensity was 4250 a.u.
